Measurements collected from several papers.
Each numbered part is a random draw from the data of one study; scales do not carry over between parts.
Chain of UniProt Q96SB4 (whole entry, looked up): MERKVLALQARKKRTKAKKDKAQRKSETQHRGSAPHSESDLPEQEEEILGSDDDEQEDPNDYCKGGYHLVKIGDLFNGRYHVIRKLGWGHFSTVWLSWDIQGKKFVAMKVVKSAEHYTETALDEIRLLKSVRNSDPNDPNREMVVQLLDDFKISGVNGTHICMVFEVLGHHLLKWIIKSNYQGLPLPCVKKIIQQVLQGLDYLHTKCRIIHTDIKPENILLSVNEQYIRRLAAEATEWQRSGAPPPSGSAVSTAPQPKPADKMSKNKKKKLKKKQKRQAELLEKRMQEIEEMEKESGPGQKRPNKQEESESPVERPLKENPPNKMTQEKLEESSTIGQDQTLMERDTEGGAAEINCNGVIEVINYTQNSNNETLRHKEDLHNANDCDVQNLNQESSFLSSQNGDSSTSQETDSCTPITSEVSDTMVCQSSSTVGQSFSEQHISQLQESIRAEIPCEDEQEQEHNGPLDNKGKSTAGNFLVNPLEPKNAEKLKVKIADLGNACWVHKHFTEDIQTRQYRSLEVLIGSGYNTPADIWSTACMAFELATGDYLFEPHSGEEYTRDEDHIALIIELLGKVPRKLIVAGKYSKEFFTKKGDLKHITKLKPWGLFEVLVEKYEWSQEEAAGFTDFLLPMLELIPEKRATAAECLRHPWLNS

Series 1
Target: Phosphate system positive regulatory protein PHO4, full length, GST-tagged (PHO4, Saccharomyces cerevisiae, UniProt P07270, residues 1-312)
Method: competition protein-binding microarray
Molecule type: double-stranded DNA, one strand shown
Medium: in vitro
Tested at: 2 µM
Notes: whole 60-bp probe, lowest competitor level
Added: Cbf1 competitor, 0.05 µM
Reading: higher = stronger binding
All sequences stand within: … GTCTTGATTCGCTTGACGCTGCTG
Target sequence (chain): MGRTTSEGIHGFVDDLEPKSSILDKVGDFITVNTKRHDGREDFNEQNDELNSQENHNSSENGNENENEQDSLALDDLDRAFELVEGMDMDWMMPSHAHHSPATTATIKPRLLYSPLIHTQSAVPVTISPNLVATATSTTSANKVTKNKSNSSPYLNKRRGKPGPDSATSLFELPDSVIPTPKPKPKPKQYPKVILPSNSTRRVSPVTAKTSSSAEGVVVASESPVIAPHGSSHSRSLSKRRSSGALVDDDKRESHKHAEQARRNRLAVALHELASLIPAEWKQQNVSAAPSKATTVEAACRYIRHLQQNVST
Sequence	fluorescence intensity [a.u.]
GCTCATCCTTCTGTTCATGCGTGAAGGCTGAATTAT	5670
CTTGATTCTAAATATCACAGTAGAATAATGGTTTAT	3420
TGAGGACATAATACCCACGTGAGTATGACTTTAAAA	15100
AATGGGAACACCTTACGCGTGAGATGGGCCCACCGC	5370
AAATTACTAAGTTTTCACGTGGCCTACCCCGTATGA	14500
CTTTCCCGATCTTGTCACTAGACTTTAGCACATTTG	3740
CATACCCAACCTTGGGGAGTGGGTGAAGATATTTGT	4840
TAGAAATTCCTCCTTCACGTTCTGTTGAAGGGAGGA	9150

Series 2
Target: Homeobox protein Hox-B13, full length (HOXB13, Homo sapiens, UniProt Q92826, residues 1-284)
Chain of UniProt Q92826 (whole entry, looked up): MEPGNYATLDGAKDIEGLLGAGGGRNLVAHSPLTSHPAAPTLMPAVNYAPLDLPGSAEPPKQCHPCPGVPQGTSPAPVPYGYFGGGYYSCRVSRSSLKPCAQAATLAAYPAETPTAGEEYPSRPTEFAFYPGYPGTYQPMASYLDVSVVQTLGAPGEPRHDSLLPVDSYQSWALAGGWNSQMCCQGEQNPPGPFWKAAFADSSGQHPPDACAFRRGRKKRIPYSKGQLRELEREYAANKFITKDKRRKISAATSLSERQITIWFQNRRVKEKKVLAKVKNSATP
Method: protein-binding microarray
Molecule type: hairpin DNA
Medium: in vitro
Tested at: not given
Notes: whole hairpin DNA, median over replicate spots
Relative to: not given
Reading: higher = stronger binding
Sequence	median fluorescence
GAGGCCGTTCTATTGGGGCCTCCTGGCCCCAATAGAACGGCCTCACACTC (5mC at 10)	4070 a.u.
GAGGCCGTTTTGTTGGGGCCTCCTGGCCCCAACAAAACGGCCTCACACTC (5mC at 33)	4210 a.u.
GAGGCCGTTTTATTTGGGCCTCCTGGCCCAAATAAAACGGCCTCACACTC	4620 a.u.
GAGGCCGTCTTATTGGGGCCTCCTGGCCCCAATAAGACGGCCTCACACTC (5mC at 9)	4250 a.u.
GAGGCCGTTTCGTTGGGGCCTCCTGGCCCCAACGAAACGGCCTCACACTC (5mC at 11)	3970 a.u.
GAGGCCGGTTTACGAGGGCCTCCTGGCCCTCGTAAACCGGCCTCACACTC	5470 a.u.
GAGGCCGTTTGACGAGGGCCTCCTGGCCCTCGTCAAACGGCCTCACACTC	4330 a.u.
GAGGCCCGTTTATTGGGGCCTCCTGGCCCCAATAAACGGGCCTCACACTC (5mC at 37)	4570 a.u.

Series 3
Target: Histone acetyltransferase KAT6A, winged helix 1, GST fusion (KAT6A, Homo sapiens, UniProt Q92794, residues 1-85)
Method: protein binding microarray
Molecule type: double-stranded DNA, one strand shown
Medium: in vitro
Tested at: not given
Notes: 8-mer, flanks averaged, mean of 2 arrays, mostly near background
Relative to: not given
Reading: higher = stronger binding
Construct (chain): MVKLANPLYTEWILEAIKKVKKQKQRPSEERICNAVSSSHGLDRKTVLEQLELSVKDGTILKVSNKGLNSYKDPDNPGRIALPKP
Sequence	E-score
AGGACACT	-0.266
CTTCGGAA	0.145
TATCCAGA	-0.068
ACCTCGTA	-0.0603
AGTTAACA	-0.108
ACCAGTCG	0.00139
CTACCTTC	-0.0832
AATGGGCG	0.0221

Further values, each from its own experiment
Compound	target	read-out	mode	tested at	relative to	measurement	result
COc1ccc(S(=O)(=O)N(CCO)c2ccccc2CN(C)CC=Cc2ccc(Cl)cc2)cc1	SRSF protein kinase 1 (SRPK1, Homo sapiens, UniProt Q96SB4)	enzyme activity	inhibitor	0.5 µM	control	remaining activity	105%

Some of these lines once more (series 3):
Sequence	E-score
AGGACACT	-0.266
CTTCGGAA	0.145
TATCCAGA	-0.068
ACCTCGTA	-0.0603
